Measurements of several laboratories.
Each numbered part is a random draw from the data of one study; scales do not carry over between parts. Substitutions count along the parent as printed.

Set 1 — method: RNA Bind-n-Seq; form: RNA; matrix: in vitro; concentration: 200 nM; notes: whole 134-nt RNA, ends assumed; with: 150 mM KCl; baseline: input library; reading: higher = stronger binding
Target: Ras GTPase-activating protein-binding protein 1, full length (G3BP1, Homo sapiens, UniProt Q13283)
UniProt Q13283, sequence (whole entry, looked up): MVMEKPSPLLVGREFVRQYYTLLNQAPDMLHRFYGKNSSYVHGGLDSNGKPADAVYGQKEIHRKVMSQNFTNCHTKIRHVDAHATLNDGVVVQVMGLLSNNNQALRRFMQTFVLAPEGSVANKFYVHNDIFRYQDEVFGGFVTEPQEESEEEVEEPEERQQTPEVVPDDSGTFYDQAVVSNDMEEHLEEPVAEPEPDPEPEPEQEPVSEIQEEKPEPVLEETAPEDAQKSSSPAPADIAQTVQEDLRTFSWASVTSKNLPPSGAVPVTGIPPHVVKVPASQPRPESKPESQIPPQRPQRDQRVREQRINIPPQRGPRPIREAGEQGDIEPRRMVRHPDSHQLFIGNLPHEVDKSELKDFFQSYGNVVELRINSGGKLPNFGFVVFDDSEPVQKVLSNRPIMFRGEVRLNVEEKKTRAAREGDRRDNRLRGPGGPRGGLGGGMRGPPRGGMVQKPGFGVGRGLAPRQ
Constant ends, left off below: GGGAGUUCUACAGUCCGACGAUC … UGGAAUUCUCGGGUGUCAAGG
With `AGUCCUGUGCUACACAUCGUAUGUACCGAAUCGGGUUUUUGGGUUUUUGGGAAAGGGAAAGUAUUAUGUUACGCCGUUCGGAUCUGCACU` the log2 enrichment was -0.488.
The log2 enrichment of `UCCUGUGCUACACAUCGUAUGUACCGAAUCGGGGUUUUUGGGGUUUUUGGGGUUUUUGGGAAAGUAUUAUGUUACGCCGUUCGGAUCUGC` is reported as 0.3.
`UAACUUUAGAGGAGGAUCUGAUGGAUAUGGCAGUGGACGUGGAUUUGGGGAUGGCUAUAAUGGGUAUGGAGGAGGACCUGGAGGUCGCAA` gave a log2 enrichment of 0.229.
For `CAAGUCCUGUGCUACACAUCGUAUGUACCGAAUCGGGAAGGGGAAGGGGAAGGGGAAAGUAUUAUGUUACGCCGUUCGGAUCUGCACUUC`, the log2 enrichment was 1.07.
`CACAGACAACACGCACCCACACAGACACAGAGGGAAGGGGUUGGGAUGGGGACAGGGUGCACAGCAGGACGGGGUAGGACCCCAGCCCCU` has a log2 enrichment of 2.03.
With `CUCAAGUCCUGUGCUACACAUCGUAUGUACCGAAUCGGUUUGGAGGUUUUUGGAAAGUAUUAUGUUACGCCGUUCGGAUCUGCACUUCCA` the log2 enrichment was -0.249.
`AAGUCCUGUGCUACACAUCGUAUGUACCGAAUCGGGUUUUGGUUUUGGGUUUUGGGAAAGUAUUAUGUUACGCCGUUCGGAUCUGCACUU` has a log2 enrichment of -1.03.
For `UUUGACGCGGUGUGUUACGUGGGGGAGAGAAUAAAACUCCAGCGAGAUCCGGGCCGUGAACGAAAGCAGUGACGGAGGAGCUUGUACCAC`, the log2 enrichment was 0.556.
The log2 enrichment of `ACCAUGCAGGUGGGCAUCUUUGGGAAGUGGGGCAAGGGGGGGAUAGGGAGGGGGGUAACACGUUGGGAACAGGUGGUCCCAGGUCGUUUC` is reported as 1.46.
For `UCAAGUCCUGUGCUACACAUCGUAUGUACCGAAUCGGGAAAGGAAAGGGAAAGGAAAGUAUUAUGUUACGCCGUUCGGAUCUGCACUUCC`, the log2 enrichment was -0.844.
`CAAGUCCUGUGCUACACAUCGUAUGUACCGAAUCGGAAAGGGAAAGGGAAAGGGGAAAGUAUUAUGUUACGCCGUUCGGAUCUGCACUUC` gave a log2 enrichment of -0.246.
With `GGUUUCUGGUGAGCUUCAUGGUUGACGCCCGGGGUGGUUCCAUGAGAGGAAGUCGCCACAACGGCCUGCGAGUGGUGAUCCCGCCACGGA` the log2 enrichment was -1.73.
With `ACCAUGCAGGUGGGCAUCUUUGGGAAGUGGGGCAAGGGGGGUAUAGGGAGGGGGGUAACACUUUGGGAACAGGUGGUCCCAGGUCGUUUC` the log2 enrichment was 0.863.
`AAGUCCUGUGCUACACAUCGUAUGUACCGAAUCGGGAAAAAGGGUUUGGGUUUGGGAAAGUAUUAUGUUACGCCGUUCGGAUCUGCACUU` has a log2 enrichment of 0.218.

Set 2 — target: CCNB3, cyclin fold, Cln2 fusion (human); method: yeast growth competition, sequencing; matrix: yeast; notes: weak parent motif; baseline: not given; reading: higher = stronger binding
Parent: INSM1 docking peptide (human); PKAIRKLHFEDEV; partner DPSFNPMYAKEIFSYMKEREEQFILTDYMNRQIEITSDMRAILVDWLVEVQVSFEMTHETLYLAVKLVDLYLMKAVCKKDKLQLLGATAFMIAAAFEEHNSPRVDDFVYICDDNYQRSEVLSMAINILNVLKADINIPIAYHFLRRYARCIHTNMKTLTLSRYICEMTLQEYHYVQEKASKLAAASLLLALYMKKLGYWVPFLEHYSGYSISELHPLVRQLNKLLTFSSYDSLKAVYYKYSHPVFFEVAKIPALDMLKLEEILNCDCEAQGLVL
`K2C` — result for “normalised enrichment score”: 0.81.
`E10G`: “normalised enrichment score” 1.06.
`E10Q`: “normalised enrichment score” 0.26.
For `R5M`, “normalised enrichment score” read 0.327.
Under “normalised enrichment score”, `K2Q` is recorded as 0.179.
`D11Y`: “normalised enrichment score” 0.375.
`K2W` — result for “normalised enrichment score”: 0.357.
`E12V`: “normalised enrichment score” 0.509.
Under “normalised enrichment score”, `E10N` is recorded as 0.385.
`E12P`: “normalised enrichment score” 0.532.
Under “normalised enrichment score”, `A3Q` is recorded as 0.0959.
`R5H`: “normalised enrichment score” 0.000861.
`E10S` — result for “normalised enrichment score”: 0.449.
For `R5I`, “normalised enrichment score” read -0.299.
`K2L`: “normalised enrichment score” 0.507.
`L7T` — result for “normalised enrichment score”: 0.0292.
Under “normalised enrichment score”, `E12L` is recorded as 0.74.
`K6P` — result for “normalised enrichment score”: -0.0332.
`A3R`: “normalised enrichment score” 0.164.
For `L7H`, “normalised enrichment score” read -0.0335.
For `K2V`, “normalised enrichment score” read 0.324.
Under “normalised enrichment score”, `I4W` is recorded as 0.885.
For `F9K`, “normalised enrichment score” read -0.111.
`A3V` — result for “normalised enrichment score”: 0.841.
Under “normalised enrichment score”, `K2A` is recorded as 0.344.

Set 3 — method: RNA Bind-n-Seq; form: RNA; matrix: in vitro; concentration: not given; baseline: input RNA pool; reading: higher = stronger binding
Target: RING finger protein unkempt homolog, zinc fingers 1-6, GST-SBP tag (UNK, Homo sapiens, UniProt Q9C0B0, residues 30-357)
UniProt Q9C0B0, sequence (30-357, looked up): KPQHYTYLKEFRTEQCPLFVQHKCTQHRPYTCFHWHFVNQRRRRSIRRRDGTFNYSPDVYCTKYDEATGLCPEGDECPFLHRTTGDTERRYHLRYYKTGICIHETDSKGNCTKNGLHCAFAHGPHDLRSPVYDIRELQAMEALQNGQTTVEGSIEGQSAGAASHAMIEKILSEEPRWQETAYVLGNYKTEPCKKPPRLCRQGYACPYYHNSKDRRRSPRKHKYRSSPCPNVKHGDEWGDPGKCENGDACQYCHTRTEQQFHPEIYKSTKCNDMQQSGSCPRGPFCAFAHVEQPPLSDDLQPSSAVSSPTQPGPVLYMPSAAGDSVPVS
Notes: RNA with constant flanks, human and mouse sites, ends assumed
Constant ends, left off below: GGGAGUUCUACAGUCCGACGAUC … CAACAGAGGAUUGAGCAUCA
For `AUUAAGCACCUGAAGGAAGAAAAUGAGAAGCUGAAUGGGUUCCUAGAACAUGAGCGGUGUAAUAAUAGUGUGAUGGCCAAAACUCUGGAGGAAUGUCGAGUUACCUUGGAAGGCUUGAAA`, the bound/input enrichment was 0.944 ratio.
The bound/input enrichment of `UUUUAAAAAUAACUAGUGUAGCUUAUCUUAAACAUUUUAUAAAACCUUCAGAUGUCUUUAAGCAGAUUGGAAGUAUGCAAGUGCUUCCUUAGCAGGGACAGUGGAUAAUCCUUAAUGGUU` is reported as 11.6 ratio.
`CAGCCAGCAAACUUGAUAGUGCUUUUGGUCCUAGAUGAUUUUUAUCAAAUAAGUGGAUUGAUUAGUUAAGUUCAGGUAAUGUUUAUGUAAUGAAAAACAAAUAGCAUCCUUCUUGUUUCA` has a bound/input enrichment of 1.75 ratio.
`AUCCUUUUUUUUUUCUUUAUAUUUUGGGUUUUGGAGCUUUUAAAAAUGUUUGCUUUCAGGUAUUUUUACUCAUGUGAAGUGAUCUUGAUUCUUCUGAGGUUUUAAACUAAAAUGUUGCUU` gave a bound/input enrichment of 0.687 ratio.
`UCGGGGGGGGGGGGCAGUCACCAGCUGAGCUGUACAGCCACAGCCACGGCCGCGGCAUGGCUCGGAGCUUGUUUGACACUGUGCUCAGUCUGUUUUUCUAGGGUUUCAGAUUCAUUGUAU` has a bound/input enrichment of 0.44 ratio.
For `GGAUUUUCUCAGUCCUUCACUCAAGAACAAGUAGCUGAUAUUGAUGGACAGUAUGCAAUGACUCGAGCUCAGAGGGUACGAGCUGCUAUGUUCCCUGAGACAUUAGAUGAGGGCAUGCAG`, the bound/input enrichment was 0.277 ratio.
`AACUGUAUCUGUGAUAUUGAAAAUUGUUCCAACAUGGCACCCCUCUACAGUGACUCUUACUUAGUCUUCUGGGCCAUUUUCAACUUGGUGACCUUUGUGGUAAUGGUGGUUCUCUAUGCU` gave a bound/input enrichment of 0.335 ratio.
`GACCUGAAGAAGCUCCGGGUGAAAGAGCUGAAGAAGAUCCUGGACGACUGGGGGGAGAUGUGCAAAGGCUGUGCAGAAAAGUCUGACUAUAUCCGGAAGAUAAAUGAACUGAUGCCUAAA` has a bound/input enrichment of 0.244 ratio.
With `GUUUUAUUACUUCUUGGAGAUGAAUCCAUGCAGAAGUUAUUUGAAGGAGGAAAAGGUAGUGUAUUUCAAAGGGUACUCUCUUGGAUCCCAUCAAAUAACCACCAGCUACAGCUUGCUGGA` the bound/input enrichment was 0.133 ratio.
`GAACCAUCCUAACAUAGUGAAACUGUUUGAAGUUAUUGAAACAGAGAAGACACUCUAUUUGGUCAUGGAAUACGCAAGUGGGGGUGAAGUCUUUGAUUACUUAGUUGCCCACGGAAGAAU` gave a bound/input enrichment of 0.356 ratio.
For `CUGUGUUAUAUGUCAUAUUUAGCGUUUUUAUAUAUGACCUUUGAUUUCUGUUGUUUGUAUUUUAGCACAGUGUAUGCACCUUCAUUUAAAUACAUCUGUGUGCAUACAGAUACGCAUAUA`, the bound/input enrichment was 2.59 ratio.

Set 4 — method: RNA Bind-n-Seq; form: RNA; matrix: in vitro; concentration: 365 nM; baseline: no-protein control; reading: higher = stronger binding
Target: RNA binding protein fox-1 homolog 2, RRM domain, GST-SBP tag (RBFOX2, Homo sapiens, UniProt O43251-10, residues 100-194)
Notes: natural RNA segment, single round, ends assumed
Constant ends, left off below: GGGAGUUCUACAGUCCGACGAUC … UGGAAUUCUCGGGUGCCAA
Construct (chain): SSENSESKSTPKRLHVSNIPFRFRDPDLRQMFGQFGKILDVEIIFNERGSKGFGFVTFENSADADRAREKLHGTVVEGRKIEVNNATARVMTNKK
`AUGCUCACUUGUUAGUAUUUCUGAGUAACAAGAUGGUGACUUCUCCUUGGGGAUCUGGGAGCUGAGCACUUGUCUAUACUUGUUCCUAAUUUUCCAAGUAUUUCUCUUGA` — result for “RBNS enrichment (R)”: 0.44.
`ACAGCCCUCCCGCCCCUUCCCCGAGGGAUGAUGCCACACCAAGCUGUGCCACCCUGGGCUCUGUGGGCUGCACUCUGUGCCCAUGGGCACUGCUGGGUGGCCCAUCCCCC` — result for “RBNS enrichment (R)”: 0.318.
Under “RBNS enrichment (R)”, `UUUCCGGGCCCUCAGGGCUGGGGAGCUCAGUUCCCAUUGCUUGUGCUCAGGGCUGAGUCUUAAAGAAGGGUUUGCCGGCCCUAACGCUGCAGCGCGUGCGCGGUGAGAGG` is recorded as 0.948.
`AAACUGUUCUCAGGACCUUGGGCUCUGGGCAGUCUGUCAGUACCAAGCCUUUAUGCCUAUGAGAACUCCAUAGCUGGGUCUCACCACUAAUAAACAGACCUGCACCUCUG`: “RBNS enrichment (R)” 0.311.
`UGUGAAUUGCUUGGUUGUAAUUAAAUUCUGAGCCUGAUAUUGAUAUGGUUUUAAGAAGCAGUUGUACCAAGUGAAAUUAUUUUGGAGAUUAUAAUAAAUAUAUACAUUCA` — result for “RBNS enrichment (R)”: 0.696.
`UGUUGUUACAAAAAGUCUAAAUUACUGUUGGUUGAAACACAGCAGCUGUGGAGUUCAGUCCAGGCAUGAAGACUAAAUCUGCUUUACCAAGUAAGGUGUAAGGUUGCAUG` — result for “RBNS enrichment (R)”: 1.71.
`GAACAGUCUCCCUCGUCCCACCCACUGCCUCGUUAACUAGAUCCCACAUCAGUGUGCUGAGUACCUGACCUCCAGGAUCUCCUCCACUUUGUUCUCACACCCCACUGCCC` — result for “RBNS enrichment (R)”: 1.43.
`UCUUAUGUACUAUCCAAAAGUGCCAGAAUGACUCUUCUGUGCAUUCUUCUUAAAGAGCUGCUUGGUUAUCCAAAAAUGAAAAUUCAAAAUAAACUCUGAAGAAAAGGAAA`: “RBNS enrichment (R)” 0.733.
`UCAAGAGAUUGCCACUCUCAUAGGUAAACAUGAGGAAAACAGGAAAAGUUUGCUUCUUUUUAUUGAUGGUUCCAAAGAAACAAACCAAAUCUACCAGCUCUUGGAUGAAG`: “RBNS enrichment (R)” 0.339.
For `GGUGAAUCACCUGGCUGAGCAGUUCCCCUGGAGCCCCUUCGGGAGCAGGGCUGUGUCCCAGAUGGGCCACGGCUGAGCCUUCAGAGUACGUCCUGCCUGGCACUUACUGG`, “RBNS enrichment (R)” read 0.242.
`UUGAGAAAGCAAGAUCUAAUCUGAAAUGGAUGACAUUAACAAGCUCCUUAAGCCCCUGAAGUUUUAUUGCAUCUGCUAGCACUUGAAUGCUGACUGACAGGCAGAUCCUG` — result for “RBNS enrichment (R)”: 2.97.
`GGCAAGCAGUUCAUCACCAGGACACUAGCUAUGAUUCUAGAAGUCAAAAGGUGUCUAUAGAACUAGUGGGGCUUCUGCAUGUGAAAAACGGUUUUCCAUAGGCAUUAAAG` — result for “RBNS enrichment (R)”: 4.61.
